Measurements gathered from unrelated publications.
Parts stem from different laboratories: compare values within a part only. Several values in a cell are separate wells, animals, samples, runs or records.
UniProt P06239, sequence (whole entry, looked up): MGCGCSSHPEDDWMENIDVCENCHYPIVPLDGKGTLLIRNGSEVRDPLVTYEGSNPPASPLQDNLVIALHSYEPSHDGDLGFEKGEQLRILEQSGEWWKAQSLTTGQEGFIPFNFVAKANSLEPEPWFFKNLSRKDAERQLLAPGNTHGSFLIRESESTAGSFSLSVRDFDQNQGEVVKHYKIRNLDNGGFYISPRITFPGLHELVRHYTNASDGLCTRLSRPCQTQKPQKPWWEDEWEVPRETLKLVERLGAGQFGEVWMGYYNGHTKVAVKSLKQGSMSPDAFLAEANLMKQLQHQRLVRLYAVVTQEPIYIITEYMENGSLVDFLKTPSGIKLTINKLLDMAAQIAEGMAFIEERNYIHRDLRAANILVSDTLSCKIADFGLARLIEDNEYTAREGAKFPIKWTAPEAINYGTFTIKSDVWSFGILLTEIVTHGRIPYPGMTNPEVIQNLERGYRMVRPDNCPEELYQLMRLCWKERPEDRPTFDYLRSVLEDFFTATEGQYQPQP
UniProt P49841, sequence (whole entry, looked up): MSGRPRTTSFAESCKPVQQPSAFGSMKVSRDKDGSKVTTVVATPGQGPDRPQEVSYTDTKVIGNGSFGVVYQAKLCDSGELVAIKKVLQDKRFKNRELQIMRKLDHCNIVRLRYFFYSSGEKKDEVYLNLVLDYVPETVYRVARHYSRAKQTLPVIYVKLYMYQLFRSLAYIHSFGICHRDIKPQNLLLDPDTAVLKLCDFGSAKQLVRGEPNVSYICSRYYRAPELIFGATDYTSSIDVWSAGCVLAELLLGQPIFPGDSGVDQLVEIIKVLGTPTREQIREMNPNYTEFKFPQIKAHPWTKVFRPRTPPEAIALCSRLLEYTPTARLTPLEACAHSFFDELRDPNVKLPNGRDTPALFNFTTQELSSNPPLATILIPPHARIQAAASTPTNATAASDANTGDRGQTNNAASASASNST
UniProt Q13237, sequence (whole entry, looked up): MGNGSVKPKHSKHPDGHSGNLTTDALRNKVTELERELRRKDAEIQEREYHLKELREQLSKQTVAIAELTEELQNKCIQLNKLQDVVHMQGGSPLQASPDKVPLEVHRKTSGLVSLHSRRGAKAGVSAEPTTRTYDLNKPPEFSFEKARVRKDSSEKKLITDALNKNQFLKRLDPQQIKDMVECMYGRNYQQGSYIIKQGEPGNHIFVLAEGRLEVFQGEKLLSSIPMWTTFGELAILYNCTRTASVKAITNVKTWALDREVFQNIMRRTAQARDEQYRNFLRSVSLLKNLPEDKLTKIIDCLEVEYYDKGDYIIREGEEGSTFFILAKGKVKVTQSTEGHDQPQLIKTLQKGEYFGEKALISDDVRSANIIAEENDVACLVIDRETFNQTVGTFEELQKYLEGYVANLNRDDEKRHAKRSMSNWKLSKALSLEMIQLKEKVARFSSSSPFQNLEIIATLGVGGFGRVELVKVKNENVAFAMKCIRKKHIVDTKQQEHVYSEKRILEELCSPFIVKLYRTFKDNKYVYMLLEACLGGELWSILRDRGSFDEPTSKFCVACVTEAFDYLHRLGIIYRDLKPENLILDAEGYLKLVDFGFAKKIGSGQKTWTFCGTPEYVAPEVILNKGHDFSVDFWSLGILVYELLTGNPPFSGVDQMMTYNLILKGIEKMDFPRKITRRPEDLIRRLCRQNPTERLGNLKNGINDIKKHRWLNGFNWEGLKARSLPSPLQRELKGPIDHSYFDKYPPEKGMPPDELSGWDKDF
UniProt P49336, sequence (whole entry, looked up): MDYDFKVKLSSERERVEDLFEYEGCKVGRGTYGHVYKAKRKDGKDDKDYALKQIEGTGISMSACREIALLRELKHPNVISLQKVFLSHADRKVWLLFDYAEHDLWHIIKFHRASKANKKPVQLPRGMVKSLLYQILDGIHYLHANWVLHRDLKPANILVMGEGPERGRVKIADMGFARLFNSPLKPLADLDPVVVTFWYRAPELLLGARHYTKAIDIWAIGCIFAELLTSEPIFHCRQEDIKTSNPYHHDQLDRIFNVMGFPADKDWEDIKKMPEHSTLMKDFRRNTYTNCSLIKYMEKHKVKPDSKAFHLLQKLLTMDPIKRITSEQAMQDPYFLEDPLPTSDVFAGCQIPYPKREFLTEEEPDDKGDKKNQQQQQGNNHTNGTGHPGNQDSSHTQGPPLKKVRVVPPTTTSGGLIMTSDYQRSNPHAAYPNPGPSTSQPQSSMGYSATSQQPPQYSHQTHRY
UniProt Q04912, sequence (whole entry, looked up): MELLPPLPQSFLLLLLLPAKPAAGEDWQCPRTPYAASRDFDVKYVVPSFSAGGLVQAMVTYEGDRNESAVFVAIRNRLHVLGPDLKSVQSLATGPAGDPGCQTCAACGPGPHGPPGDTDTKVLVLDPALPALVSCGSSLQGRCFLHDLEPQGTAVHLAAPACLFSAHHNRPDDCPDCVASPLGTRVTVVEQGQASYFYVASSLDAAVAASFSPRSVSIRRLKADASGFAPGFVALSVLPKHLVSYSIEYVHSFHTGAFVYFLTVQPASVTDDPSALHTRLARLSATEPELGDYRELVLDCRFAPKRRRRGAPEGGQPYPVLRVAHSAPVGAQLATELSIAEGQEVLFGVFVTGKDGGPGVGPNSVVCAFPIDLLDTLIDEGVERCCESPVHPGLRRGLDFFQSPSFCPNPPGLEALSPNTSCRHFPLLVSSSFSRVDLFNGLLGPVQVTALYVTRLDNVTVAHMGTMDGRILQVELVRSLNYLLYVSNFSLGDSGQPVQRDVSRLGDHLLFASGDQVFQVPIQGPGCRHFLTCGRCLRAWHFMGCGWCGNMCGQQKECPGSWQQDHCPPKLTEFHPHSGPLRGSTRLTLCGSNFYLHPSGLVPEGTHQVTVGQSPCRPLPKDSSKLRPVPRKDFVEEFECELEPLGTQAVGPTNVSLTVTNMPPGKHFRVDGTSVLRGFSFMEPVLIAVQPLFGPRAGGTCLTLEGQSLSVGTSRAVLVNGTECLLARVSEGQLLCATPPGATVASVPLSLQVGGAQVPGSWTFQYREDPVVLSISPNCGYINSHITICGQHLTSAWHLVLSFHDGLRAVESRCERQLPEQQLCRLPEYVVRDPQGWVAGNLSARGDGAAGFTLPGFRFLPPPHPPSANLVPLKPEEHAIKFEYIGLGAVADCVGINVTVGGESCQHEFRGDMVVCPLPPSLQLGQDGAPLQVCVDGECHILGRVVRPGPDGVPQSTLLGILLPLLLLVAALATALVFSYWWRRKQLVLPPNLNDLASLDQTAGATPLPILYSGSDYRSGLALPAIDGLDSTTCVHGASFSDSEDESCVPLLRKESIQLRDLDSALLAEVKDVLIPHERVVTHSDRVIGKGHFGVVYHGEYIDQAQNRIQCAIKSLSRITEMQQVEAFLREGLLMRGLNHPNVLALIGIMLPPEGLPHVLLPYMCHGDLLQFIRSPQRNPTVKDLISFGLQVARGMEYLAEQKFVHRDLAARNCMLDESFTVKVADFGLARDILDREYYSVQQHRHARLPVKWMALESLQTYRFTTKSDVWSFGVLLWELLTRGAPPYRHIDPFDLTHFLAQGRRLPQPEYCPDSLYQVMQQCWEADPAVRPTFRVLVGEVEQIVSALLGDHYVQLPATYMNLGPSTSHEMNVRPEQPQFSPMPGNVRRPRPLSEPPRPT
UniProt P78368, sequence (whole entry, looked up): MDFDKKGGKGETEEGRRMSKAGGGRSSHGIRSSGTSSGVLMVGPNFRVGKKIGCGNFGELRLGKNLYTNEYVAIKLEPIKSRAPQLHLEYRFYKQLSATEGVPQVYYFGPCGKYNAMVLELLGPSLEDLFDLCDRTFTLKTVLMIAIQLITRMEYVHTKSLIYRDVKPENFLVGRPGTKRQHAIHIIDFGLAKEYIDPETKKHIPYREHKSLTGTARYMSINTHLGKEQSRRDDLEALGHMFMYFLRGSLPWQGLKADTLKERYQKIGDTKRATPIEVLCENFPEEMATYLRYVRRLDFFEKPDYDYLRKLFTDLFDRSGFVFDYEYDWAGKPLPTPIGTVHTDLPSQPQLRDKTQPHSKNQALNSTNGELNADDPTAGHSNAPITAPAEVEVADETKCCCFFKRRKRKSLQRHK
UniProt Q8IYT8, sequence (whole entry, looked up): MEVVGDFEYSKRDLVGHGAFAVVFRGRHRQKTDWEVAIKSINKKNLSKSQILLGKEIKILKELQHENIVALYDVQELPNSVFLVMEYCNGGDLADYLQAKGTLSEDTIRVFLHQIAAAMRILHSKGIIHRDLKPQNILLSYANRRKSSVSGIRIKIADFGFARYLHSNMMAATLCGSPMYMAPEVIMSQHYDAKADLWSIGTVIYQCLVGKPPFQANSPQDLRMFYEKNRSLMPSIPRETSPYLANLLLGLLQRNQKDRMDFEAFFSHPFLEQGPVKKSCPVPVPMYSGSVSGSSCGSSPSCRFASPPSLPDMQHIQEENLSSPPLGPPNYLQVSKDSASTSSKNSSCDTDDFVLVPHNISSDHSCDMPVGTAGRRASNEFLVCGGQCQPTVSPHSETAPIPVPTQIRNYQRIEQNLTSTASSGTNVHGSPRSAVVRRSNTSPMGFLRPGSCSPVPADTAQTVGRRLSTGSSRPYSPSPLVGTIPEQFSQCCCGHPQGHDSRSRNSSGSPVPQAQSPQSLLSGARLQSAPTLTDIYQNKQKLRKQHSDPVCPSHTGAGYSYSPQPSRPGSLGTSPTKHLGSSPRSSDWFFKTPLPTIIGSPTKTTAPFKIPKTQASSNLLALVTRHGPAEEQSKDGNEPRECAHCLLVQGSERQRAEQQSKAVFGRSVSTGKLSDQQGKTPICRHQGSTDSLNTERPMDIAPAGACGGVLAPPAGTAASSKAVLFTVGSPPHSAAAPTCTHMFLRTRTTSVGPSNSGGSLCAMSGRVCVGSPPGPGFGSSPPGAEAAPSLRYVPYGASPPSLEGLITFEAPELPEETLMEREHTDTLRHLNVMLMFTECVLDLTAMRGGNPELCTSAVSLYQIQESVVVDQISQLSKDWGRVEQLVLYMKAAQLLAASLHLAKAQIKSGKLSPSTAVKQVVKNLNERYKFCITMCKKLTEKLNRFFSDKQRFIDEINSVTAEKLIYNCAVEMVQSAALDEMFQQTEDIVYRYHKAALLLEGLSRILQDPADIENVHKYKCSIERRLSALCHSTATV

Study 1
Structure (SMILES): CCC(=O)N[C@@H]1CC[C@H](C(=O)N(C)c2ccc(-c3nc4ccccc4o3)cc2)C1
Read-out: cell-free assay
Method: competition with immobilised ligand
Tested at: 1 µM
target | remaining binding [%]
MAP4K1 (Homo sapiens, UniProt Q92918) | 100
PTK2 (Homo sapiens, UniProt Q05397) | 100
ALK (Homo sapiens, UniProt Q9UM73, L1196M) | 100
Tyrosine-protein kinase ABL1, non-phosphorylated (ABL1, Homo sapiens, UniProt P00519, H396P) | 46
PHKG1 (Homo sapiens, UniProt Q16816) | 100
RIOK2 (Homo sapiens, UniProt Q9BVS4) | 100
Ribosomal protein S6 kinase alpha-3, C-terminal kinase domain (RPS6KA3, Homo sapiens, UniProt P51812) | 91
GRK4 (Homo sapiens, UniProt P32298) | 100
PIK3CA (Homo sapiens, UniProt P42336, H1047Y) | 100
PIP4K2C (Homo sapiens, UniProt Q8TBX8) | 100
Ribosomal protein S6 kinase alpha-6, C-terminal kinase domain (RPS6KA6, Homo sapiens, UniProt Q9UK32) | 100
PRKG2 (Homo sapiens, UniProt Q13237) | 92
MAP3K15 (Homo sapiens, UniProt Q6ZN16) | 100
NEK10 (Homo sapiens, UniProt Q6ZWH5) | 100
CDK8 (Homo sapiens, UniProt P49336) | 100

Study 2
SMILES: Ic1cccc(CSc2nnc(-c3ccncc3)o2)c1
Read-out: enzyme activity
Mode: inhibitor
Tested at: 0.5 µM
Relative to: control
target | remaining activity [%]
CSNK1G2 (Homo sapiens, UniProt P78368) | 99.2
ULK2 (Homo sapiens, UniProt Q8IYT8) | 111
MAP2K2 (Homo sapiens, UniProt P36507) | 102
RPS6KA2 (Homo sapiens, UniProt Q15349) | 101
GRK7 (Homo sapiens, UniProt Q8WTQ7) | 112
TEK (Homo sapiens, UniProt Q02763) | 92.6
FRK (Homo sapiens, UniProt P42685) | 85.5
MAPK3 (Homo sapiens, UniProt P27361) | 95.8
TAOK2 (Homo sapiens, UniProt Q9UL54) | 105
MAP3K5 (Homo sapiens, UniProt Q99683) | 91.7
MAPKAPK2 (Homo sapiens, UniProt P49137) | 93.5
MAP3K14 (Homo sapiens, UniProt Q99558) | 88.3
LCK (Homo sapiens, UniProt P06239) | 98.5
FGFR1 (Homo sapiens, UniProt P11362) | 92.4
FGFR3 (Homo sapiens, UniProt P22607) | 106
TBK1 (Homo sapiens, UniProt Q9UHD2) | 103
MST1R (Homo sapiens, UniProt Q04912) | 104
MERTK (Homo sapiens, UniProt Q12866) | 96.4
GSK3B (Homo sapiens, UniProt P49841) | 59.8
EPHA3 (Homo sapiens, UniProt P29320) | 111
ABL2 (Homo sapiens, UniProt P42684) | 110
CSNK1G3 (Homo sapiens, UniProt Q9Y6M4) | 75.9
NEK6 (Homo sapiens, UniProt Q9HC98) | 95.4
ACVR1B (Homo sapiens, UniProt P36896) | 102
JAK3 (Homo sapiens, UniProt P52333) | 106

Study 3
Organism: Sarcocystis neurona
Read-out: parasite growth
Tested at: 10 µM
Time: 96 h
Setting: secondary screen
Compound | inhibition [%]
Nc1nc(Cl)nc2c1ncn2[C@H]1C[C@H](O)[C@@H](CO)O1 | -20.7
Cc1cccc(C)c1NC(=O)C1CCCCN1C (centres unmarked) | -10.5
CN1CC(=O)N2[C@H](c3ccc4c(c3)OCO4)c3[nH]c4ccccc4c3C[C@@H]2C1=O | -50.2
CN1CCN(C2=Nc3cc(F)ccc3Cc3ccccc32)CC1 | -22.2
C[C@H]1COc2c(C3(N)CC3)c(F)cc3c(=O)c(C(=O)O)cn1c23 | -22.5
CS(=O)(=O)c1ccc(C2=C(c3ccccc3)C(=O)OC2)cc1 | -4.2
CC(=O)Nc1ccc(CC(=O)O)cc1 | -22.7

Study 4
Cell line: mouse MPNST tumor cells
Method: high-content nuclear imaging
Item: cell number
Tested at: 10 µM
Time: 12 h
Setting: mean of 2 replicates
Relative to: plate mean
Reading: higher = more cells
Structure (SMILES) | nuclei count
COCCc1ccc(OCC(O)CNC(C)C)cc1 (centres unmarked) | 1.09 z-score
Cc1c(NC(=O)N2CCOCC2)ccc2c1c1ccccc1n2C(C)C | 1.87 z-score
CCOCCn1c(N2CCCN(C)CC2)nc2ccccc21 | 0.327 z-score
O=C(Nc1cc(Cl)ccc1O)Nc1cc(C(F)(F)F)ccc1Cl | 3.95 z-score
Nc1[nH]ncc1-c1cc(Cl)ccc1Oc1cc(F)c(S(=O)(=O)Nc2cscn2)cc1Cl | -1.41 z-score
CCC(=O)O[C@]1(C(=O)SCF)[C@H](C)C[C@H]2[C@@H]3C[C@H](F)C4=CC(=O)C=C[C@]4(C)[C@@]3(F)[C@@H](O)C[C@@]21C | 4.12 z-score and 2.2 z-score
CC(=O)c1ccc(S(=O)(=O)NC(=O)NC2CCCCC2)cc1 | -0.257 z-score and 0.435 z-score
CC(=O)CC(c1ccc([N+](=O)[O-])cc1)c1c(O)c2ccccc2oc1=O (centres unmarked) | 1.69 z-score

Further values, each from its own experiment
Structure (SMILES) | target | assay | conditions | endpoint | result
C[C@@H]1CN(c2ccc(-c3cc(C(=O)NCCOCCOCCOCCOCCOCCOCCOCCOCCOCCNC(=O)/C=C/c4[nH]cc(C(=O)N[C@@H](CC(N)=O)c5ccc(F)c(Cl)c5)c4-c4ccc(Cl)cc4F)ccc3F)cc2NC(=O)c2c[nH]c(=O)cc2C(F)(F)F)C[C@H](C)N1C | DDB1- and CUL4-associated factor 1 (DCAF1, Homo sapiens, UniProt Q9Y4B6) | thermal stability, DSF | 5.5 µM | ΔTm | 5.3 °C

Repeated from above (study 1):
target | remaining binding [%]
MAP3K15 (Homo sapiens, UniProt Q6ZN16) | 100
PRKG2 (Homo sapiens, UniProt Q13237) | 92
MAP4K1 (Homo sapiens, UniProt Q92918) | 100
PHKG1 (Homo sapiens, UniProt Q16816) | 100
Tyrosine-protein kinase ABL1, non-phosphorylated (ABL1, Homo sapiens, UniProt P00519, H396P) | 46
RIOK2 (Homo sapiens, UniProt Q9BVS4) | 100
PTK2 (Homo sapiens, UniProt Q05397) | 100
ALK (Homo sapiens, UniProt Q9UM73, L1196M) | 100
